Published values gathered from unrelated publications.
Lines come from different studies, so protocols differ. ± marks the error that the study gave.

| SMILES | assay | test system | setting | endpoint | result |
| --- | --- | --- | --- | --- | --- |
| O=C1NC2(CC2)COc2ncc(F)cc2[C@H]2COCCN2c2ccn3ncc1c3n2 | – | Sprague-Dawley rat, male, liver | oral, 10 mg/kg/day, 4 weeks, end of treatment | organ-to-brain weight ratio | 759 ± 150% |
| CC[C@H](C)[C@H](NC(=O)[C@H](CCCCN)NC(=O)CNC(=O)[C@H](CC(C)C)NC(=O)[C@H](Cc1ccccc1)NC(=O)[C@H](CCCCN)NC(=O)[C@H](CO)NC(=O)[C@H](Cc1ccccc1)NC(=O)[C@H](Cc1c[nH]c2ccccc12)NC(=O)[C@H](CCC(N)=O)NC(=O)[C@@H](NC(=O)[C@H](Cc1ccccc1)NC(=O)CCCCCNC(=O)CN1CCN(CC(=O)O)CCN(CC(=O)O)CCN(CC(=O)O)CC1)C(C)C)C(=O)N[C@@H](CCC(=O)O)C(=O)N1CCC[C@H]1C(=O)N[C@@H](CC(=O)O)C(=O)N[C@H](C(=O)N[C@@H](CO)C(=O)N[C@@H](CCC(N)=O)C(=O)N[C@H](C(=O)N[C@@H](CCC(N)=O)C(=O)N[C@@H](CC(=O)O)C(=O)N1CCC[C@H]1C(=O)N[C@@H](CC(N)=O)C(=O)N[C@@H](CC(=O)O)C(=O)N[C@@H](CCC(N)=O)C(=O)N[C@@H](Cc1ccc(O)cc1)C(=O)N[C@@H](CCC(=O)O)C(=O)N1CCC[C@H]1C(=O)N[C@@H](Cc1ccccc1)C(=O)O)C(C)C)C(C)C [copper-64 labelled] | – | C57BL/6 mice, male, naive, skeletal muscle | 2 h | tissue uptake | 0.75 ± 0.1 %ID/g |
| N#[11C]c1ccc(-c2csc(NN=C3CCCC3)n2)cc1 | – | C57BL/6 mice, male, pancreas | intravenous, 3 MBq, 15 min | radioactivity uptake | 2.87 ± 0.08 %ID/g |
| N=C(N)NCCC[C@@H](NC(=O)[C@H](N)Cc1c[nH]c2ccccc12)C(=O)N[C@H](CCCCN)C(=O)N[C@H](Cc1c[nH]c2ccccc12)C(=O)N[C@H](CCCNC(=N)N)C(=O)N[C@H](CCCCN)C(=O)N[C@H](Cc1c[nH]c2ccccc12)C(=O)N[C@H](CCCNC(=N)N)C(=O)N[C@H](CCCCN)C(=O)N[C@H](Cc1c[nH]c2ccccc12)C(=O)N[C@H](CCCNC(=N)N)C(=O)N[C@H](CCCCN)C(N)=O | – | mouse | intraperitoneal, 30 mg/kg single dose, day 7 | survival | 100% |
| C[C@H](O)[C@@H](NC(=O)[C@H]1CCCN1C(=O)[C@@H](CCCCN)NC(=O)[C@@H](CO)NC(=O)[C@@H](Cc1ccc(O)cc1)NC(=O)[C@@H](CC(N)=O)NC(=O)CCOCCOCCOCCNC(=O)CN1CCN(CC(=O)O)CCN(CC(=O)O)CCN(CC(=O)O)CC1)C(=O)N[C@H](CC(=O)O)C(=O)N[C@H](CCCNC(=N)N)C(=O)N[C@H](CCC(N)=O)C(=O)N[C@H](Cc1ccc(O)cc1)C(=O)N[C@H](Cc1c[nH]cn1)C(=O)N[C@H](Cc1ccccc1)C(N)=O [copper-64 labelled] | – | C57BL/6J mice, thymus | intravenous, 1.85 MBq, 1.333 h, radiolabelled | tissue uptake | 0.15 ± 0.01 %ID/g |
| CC[C@H](C)[C@H](NC(=O)[C@H](CCCNC(=N)N)NC(=O)[C@H](CCCCN)NC(=O)[C@H](Cc1ccc(O)cc1)NC(=O)[C@H](CC(=O)O)NC(=O)[C@H](C)NC(=O)CNC(=O)CCOCCOCCOCCNC(=O)CN1CCN(CC(=O)O)CCN(CC(=O)O)CCN(CC(=O)O)CC1)C(=O)N[C@H](C(=O)N[C@@H](CC(C)C)C(=O)N[C@@H](CCCCN)C(=O)N[C@H](C(=O)N[C@@H](CC(N)=O)C(N)=O)C(C)C)[C@@H](C)O [copper-64 labelled] | ex vivo gamma counting | C57BL/6J male mice, B16-F10 tumour, thymus | intravenous, 1.85 MBq, 20 min | tissue uptake | 0.802 ± 0.288 %ID/g |
| COc1ccc(C([O-])=CC(=O)c2ccc(C(C)(C)C)cc2)cc1.Cc1ccc(C(C)C)cc1.[Cl-].[Ru+2] | MLCT absorbance and HPLC | water, PBS, Opti-MEM | 37 °C | stability onset time | ≤ 6 h |
| COc1ccc(CNc2ccc3c(c2)S(=O)(=O)C=C3)cc1 | – | male C57BL/6 mice, blood | intraperitoneal, 10 mg/kg, day 8, group average | mean platelet volume | 5.43 fL |
| CC(C)C[C@H](NC(=O)[C@H](Cc1ccc(O)cc1)NC(=O)[C@H](Cc1c[nH]cn1)NC(=O)[C@H](CC(=O)O)NC(=O)[C@@H](NC(=O)[C@H](C)NC(=O)[C@H](CC(C)C)NC(=O)CNC(=O)CNC(=O)[C@@H](NC(=O)[C@@H](NC(=O)[C@H](CCCCN)NC(=O)CNC(=O)[C@@H](NC(=O)[C@H](CCCCN)NC(=O)[C@H](CCCCN)NC(=O)[C@H](C)NC(=O)[C@H](CCCNC(=N)N)NC(=O)[C@H](CC(N)=O)NC(=O)[C@H](Cc1ccccc1)NC(=O)[C@H](Cc1c[nH]c2ccccc12)NC(=O)[C@H](CCCCN)NC(=O)[C@H](CCCCN)NC(=O)[C@H](Cc1c[nH]c2ccccc12)NC(=O)CN)C(C)C)[C@@H](C)O)C(C)C)C(C)C)C(N)=O | – | zebrafish embryos 4 hpf, E3 medium | 1 h | acute toxic concentration | 5 µM |
| CCCCCCCCCCCCCCCC(=O)NCCCC[C@H](NC(=O)[C@H](CCC(=O)O)NC(=O)[C@H](Cc1ccc(O)cc1)NC(=O)[C@H](CCC(=O)O)NC(=O)COCC(=O)NCCCOCCOCCOCCCNC(=O)[C@H](Cc1ccccc1)NC(=O)[C@H](CC(N)=O)NC(=O)[C@H](Cc1c[nH]cn1)NC(=O)[C@@H](NC(=O)[C@H](CC(=O)O)NC(=O)[C@H](CCC(N)=O)NC(=O)[C@H](CC(C)C)NC(=O)[C@H](CCCCN)NC(=O)[C@H](CCCCN)NC(=O)[C@H](CCCNC(=N)N)NC(=O)[C@H](CC(C)C)NC(=O)[C@H](Cc1c[nH]c2ccccc12)NC(=O)[C@H](CCC(=O)O)NC(=O)[C@@H](NC(=O)[C@H](CCCNC(=N)N)NC(=O)[C@H](CCC(=O)O)NC(=O)[C@H](CCSC)NC(=O)[C@H](CO)NC(=O)[C@H](CC(N)=O)NC(=O)[C@H](CC(C)C)NC(=O)[C@H](Cc1c[nH]cn1)NC(=O)[C@H](CCCCN)NC(=O)CNC(=O)[C@H](CC(C)C)NC(=O)[C@H](CC(N)=O)NC(=O)[C@H](Cc1c[nH]cn1)NC(=O)[C@H](CCSC)NC(=O)[C@H](CC(C)C)NC(=O)[C@H](CCC(N)=O)NC(=O)[C@@H](NC(=O)[C@H](CCC(=O)O)NC(=O)[C@H](CO)NC(=O)[C@@H](NC(=O)[C@@H](N)CO)C(C)C)[C@@H](C)CC)C(C)C)C(C)C)C(=O)N[C@@H](CCC(=O)O)C(=O)N[C@@H](Cc1ccc(O)cc1)C(=O)N[C@@H](CCC(=O)O)C(N)=O | ELISA | female CD-1 mice, blood plasma | subcutaneous, 10 nmol/kg, 7 h | plasma concentration | 2.08 nM |
| CCN(CCCCOc1ccc(CCC(=O)N2CCC(Cc3ccccc3)CC2)cc1OC)Cc1ccccc1 | – | Sprague-Dawley rats, both sexes, faeces | oral gavage, 25 mg/kg, 6 to 12 h | excreted amount | 13300 ± 2690 ng |
| Cc1ccc(OCC(=O)N(Cc2cccs2)c2ccn[nH]2)cc1 | micronucleus | CD-1 mouse Crl:CD-1(ICR), male, bone marrow | oral, 2000 mg/kg/day, 3 days | PCE to total erythrocyte ratio | 0.66 ± 0.06 |

For quick reference, copied from above:
| SMILES | assay | test system | setting | endpoint | result |
| --- | --- | --- | --- | --- | --- |
| N=C(N)NCCC[C@@H](NC(=O)[C@H](N)Cc1c[nH]c2ccccc12)C(=O)N[C@H](CCCCN)C(=O)N[C@H](Cc1c[nH]c2ccccc12)C(=O)N[C@H](CCCNC(=N)N)C(=O)N[C@H](CCCCN)C(=O)N[C@H](Cc1c[nH]c2ccccc12)C(=O)N[C@H](CCCNC(=N)N)C(=O)N[C@H](CCCCN)C(=O)N[C@H](Cc1c[nH]c2ccccc12)C(=O)N[C@H](CCCNC(=N)N)C(=O)N[C@H](CCCCN)C(N)=O | – | mouse | intraperitoneal, 30 mg/kg single dose, day 7 | survival | 100% |
